Results gathered from unrelated publications.
Each line is one published result; not all experiments were run side by side. Several values in a cell are separate wells, animals, samples, runs or records. ± marks the error that the study gave.
CASP7: Caspase-7 (CASP7, Homo sapiens, UniProt P55210)
UniProt P55210, sequence (whole entry, looked up): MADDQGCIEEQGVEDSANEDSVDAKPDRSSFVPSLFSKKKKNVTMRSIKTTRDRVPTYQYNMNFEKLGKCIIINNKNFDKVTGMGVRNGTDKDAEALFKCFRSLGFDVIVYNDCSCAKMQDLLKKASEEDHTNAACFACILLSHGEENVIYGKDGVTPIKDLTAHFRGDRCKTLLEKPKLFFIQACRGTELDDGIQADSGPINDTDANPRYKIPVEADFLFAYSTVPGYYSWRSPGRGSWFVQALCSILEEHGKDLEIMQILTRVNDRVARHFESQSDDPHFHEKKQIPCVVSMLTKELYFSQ
T1: G-quadruplex DNA, G-quadruplex (Homo sapiens); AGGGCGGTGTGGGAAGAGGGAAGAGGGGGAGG
UniProt P28482, sequence (whole entry, looked up): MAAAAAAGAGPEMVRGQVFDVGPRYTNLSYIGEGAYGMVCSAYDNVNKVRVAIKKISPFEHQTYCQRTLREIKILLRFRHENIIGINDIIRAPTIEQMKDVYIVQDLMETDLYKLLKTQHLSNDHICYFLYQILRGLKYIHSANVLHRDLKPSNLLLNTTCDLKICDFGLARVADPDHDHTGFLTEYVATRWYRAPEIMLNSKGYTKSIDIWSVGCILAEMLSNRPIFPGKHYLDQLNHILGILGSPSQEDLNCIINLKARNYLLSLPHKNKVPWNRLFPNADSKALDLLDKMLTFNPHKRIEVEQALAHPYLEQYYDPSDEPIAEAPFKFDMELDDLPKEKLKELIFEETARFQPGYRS
UniProt P34972, sequence (whole entry, looked up): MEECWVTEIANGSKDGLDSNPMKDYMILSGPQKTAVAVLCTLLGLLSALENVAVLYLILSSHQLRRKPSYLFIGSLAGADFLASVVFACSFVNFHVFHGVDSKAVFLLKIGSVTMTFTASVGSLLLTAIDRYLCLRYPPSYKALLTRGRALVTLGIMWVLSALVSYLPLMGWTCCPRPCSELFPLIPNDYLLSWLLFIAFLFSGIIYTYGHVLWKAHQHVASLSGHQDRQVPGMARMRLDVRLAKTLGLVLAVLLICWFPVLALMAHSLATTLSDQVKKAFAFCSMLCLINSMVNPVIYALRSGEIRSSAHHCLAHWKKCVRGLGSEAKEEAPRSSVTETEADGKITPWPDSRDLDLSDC
UniProt Q96SW2, sequence (whole entry, looked up): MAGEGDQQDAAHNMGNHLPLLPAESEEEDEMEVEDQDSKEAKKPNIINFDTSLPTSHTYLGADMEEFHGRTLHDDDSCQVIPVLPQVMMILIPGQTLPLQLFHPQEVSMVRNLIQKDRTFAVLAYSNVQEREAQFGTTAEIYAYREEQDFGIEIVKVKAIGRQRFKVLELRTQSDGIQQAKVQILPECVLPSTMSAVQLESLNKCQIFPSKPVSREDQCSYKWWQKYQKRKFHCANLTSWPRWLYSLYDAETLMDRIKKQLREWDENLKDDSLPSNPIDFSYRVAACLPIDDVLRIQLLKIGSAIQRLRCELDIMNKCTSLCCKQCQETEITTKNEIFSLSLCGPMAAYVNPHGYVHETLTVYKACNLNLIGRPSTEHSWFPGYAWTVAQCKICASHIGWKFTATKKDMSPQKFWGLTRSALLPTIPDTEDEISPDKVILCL
UniProt Q6UB35, sequence (whole entry, looked up): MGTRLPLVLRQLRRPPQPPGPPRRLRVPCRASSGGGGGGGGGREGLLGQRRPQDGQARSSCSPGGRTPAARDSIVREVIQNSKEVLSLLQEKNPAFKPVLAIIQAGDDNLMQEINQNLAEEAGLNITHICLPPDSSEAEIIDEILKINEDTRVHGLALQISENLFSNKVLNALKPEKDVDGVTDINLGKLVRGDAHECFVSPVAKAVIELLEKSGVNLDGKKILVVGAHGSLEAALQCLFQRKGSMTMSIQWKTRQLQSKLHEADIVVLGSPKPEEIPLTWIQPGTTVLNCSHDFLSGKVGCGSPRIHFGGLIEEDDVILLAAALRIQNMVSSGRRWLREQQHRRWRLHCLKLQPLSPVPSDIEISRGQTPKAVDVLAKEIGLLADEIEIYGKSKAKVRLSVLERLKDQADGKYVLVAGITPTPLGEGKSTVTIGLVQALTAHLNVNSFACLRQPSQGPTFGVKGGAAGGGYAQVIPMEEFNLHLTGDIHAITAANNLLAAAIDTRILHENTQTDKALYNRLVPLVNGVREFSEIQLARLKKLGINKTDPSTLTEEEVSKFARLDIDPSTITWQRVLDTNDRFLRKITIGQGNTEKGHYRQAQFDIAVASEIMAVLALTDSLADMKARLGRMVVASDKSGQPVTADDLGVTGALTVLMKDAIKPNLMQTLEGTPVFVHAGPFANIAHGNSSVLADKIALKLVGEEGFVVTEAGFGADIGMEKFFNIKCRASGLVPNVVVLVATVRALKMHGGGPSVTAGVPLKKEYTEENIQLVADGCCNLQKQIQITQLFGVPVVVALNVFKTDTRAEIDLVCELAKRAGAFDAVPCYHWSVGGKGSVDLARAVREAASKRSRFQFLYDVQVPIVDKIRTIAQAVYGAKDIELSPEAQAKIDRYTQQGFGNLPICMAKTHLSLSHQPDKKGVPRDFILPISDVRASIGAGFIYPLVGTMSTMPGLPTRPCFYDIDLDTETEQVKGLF
UniProt P19491, sequence (whole entry, looked up): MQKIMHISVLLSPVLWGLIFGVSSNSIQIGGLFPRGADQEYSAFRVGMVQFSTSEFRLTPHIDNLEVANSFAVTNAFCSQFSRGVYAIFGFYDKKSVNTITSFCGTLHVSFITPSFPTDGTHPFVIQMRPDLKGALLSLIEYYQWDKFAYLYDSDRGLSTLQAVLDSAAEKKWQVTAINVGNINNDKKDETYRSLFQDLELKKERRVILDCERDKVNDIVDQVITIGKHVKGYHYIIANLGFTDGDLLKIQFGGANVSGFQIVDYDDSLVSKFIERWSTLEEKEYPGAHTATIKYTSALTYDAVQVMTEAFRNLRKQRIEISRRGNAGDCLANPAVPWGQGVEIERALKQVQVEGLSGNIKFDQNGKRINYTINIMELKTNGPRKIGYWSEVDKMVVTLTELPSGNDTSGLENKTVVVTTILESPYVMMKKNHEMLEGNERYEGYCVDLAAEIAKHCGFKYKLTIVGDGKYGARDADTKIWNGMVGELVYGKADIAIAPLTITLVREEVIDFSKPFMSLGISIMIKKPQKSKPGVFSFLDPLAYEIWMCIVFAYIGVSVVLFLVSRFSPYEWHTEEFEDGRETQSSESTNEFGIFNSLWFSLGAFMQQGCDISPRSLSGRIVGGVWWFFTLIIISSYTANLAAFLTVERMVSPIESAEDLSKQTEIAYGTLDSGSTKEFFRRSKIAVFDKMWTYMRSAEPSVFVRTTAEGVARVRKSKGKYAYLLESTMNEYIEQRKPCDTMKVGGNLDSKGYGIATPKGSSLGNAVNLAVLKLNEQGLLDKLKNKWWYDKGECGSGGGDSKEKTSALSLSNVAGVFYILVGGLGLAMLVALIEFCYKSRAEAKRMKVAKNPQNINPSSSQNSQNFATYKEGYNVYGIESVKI
UniProt Q9NQR4, sequence (whole entry, looked up): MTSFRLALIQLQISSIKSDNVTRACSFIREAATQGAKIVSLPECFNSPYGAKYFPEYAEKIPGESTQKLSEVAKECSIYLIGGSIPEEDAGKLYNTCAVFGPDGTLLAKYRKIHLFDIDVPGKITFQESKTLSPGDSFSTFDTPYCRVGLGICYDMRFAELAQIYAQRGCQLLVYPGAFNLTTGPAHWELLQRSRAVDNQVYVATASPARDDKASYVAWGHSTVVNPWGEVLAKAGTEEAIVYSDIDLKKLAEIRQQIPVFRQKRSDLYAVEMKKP
UniProt P37802, sequence (whole entry, looked up): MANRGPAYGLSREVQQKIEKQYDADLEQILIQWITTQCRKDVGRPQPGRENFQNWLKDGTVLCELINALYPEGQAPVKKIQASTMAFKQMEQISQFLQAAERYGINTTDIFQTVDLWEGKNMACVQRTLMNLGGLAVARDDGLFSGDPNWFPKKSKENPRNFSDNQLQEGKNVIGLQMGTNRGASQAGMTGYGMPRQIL
UniProt O75164, sequence (whole entry, looked up): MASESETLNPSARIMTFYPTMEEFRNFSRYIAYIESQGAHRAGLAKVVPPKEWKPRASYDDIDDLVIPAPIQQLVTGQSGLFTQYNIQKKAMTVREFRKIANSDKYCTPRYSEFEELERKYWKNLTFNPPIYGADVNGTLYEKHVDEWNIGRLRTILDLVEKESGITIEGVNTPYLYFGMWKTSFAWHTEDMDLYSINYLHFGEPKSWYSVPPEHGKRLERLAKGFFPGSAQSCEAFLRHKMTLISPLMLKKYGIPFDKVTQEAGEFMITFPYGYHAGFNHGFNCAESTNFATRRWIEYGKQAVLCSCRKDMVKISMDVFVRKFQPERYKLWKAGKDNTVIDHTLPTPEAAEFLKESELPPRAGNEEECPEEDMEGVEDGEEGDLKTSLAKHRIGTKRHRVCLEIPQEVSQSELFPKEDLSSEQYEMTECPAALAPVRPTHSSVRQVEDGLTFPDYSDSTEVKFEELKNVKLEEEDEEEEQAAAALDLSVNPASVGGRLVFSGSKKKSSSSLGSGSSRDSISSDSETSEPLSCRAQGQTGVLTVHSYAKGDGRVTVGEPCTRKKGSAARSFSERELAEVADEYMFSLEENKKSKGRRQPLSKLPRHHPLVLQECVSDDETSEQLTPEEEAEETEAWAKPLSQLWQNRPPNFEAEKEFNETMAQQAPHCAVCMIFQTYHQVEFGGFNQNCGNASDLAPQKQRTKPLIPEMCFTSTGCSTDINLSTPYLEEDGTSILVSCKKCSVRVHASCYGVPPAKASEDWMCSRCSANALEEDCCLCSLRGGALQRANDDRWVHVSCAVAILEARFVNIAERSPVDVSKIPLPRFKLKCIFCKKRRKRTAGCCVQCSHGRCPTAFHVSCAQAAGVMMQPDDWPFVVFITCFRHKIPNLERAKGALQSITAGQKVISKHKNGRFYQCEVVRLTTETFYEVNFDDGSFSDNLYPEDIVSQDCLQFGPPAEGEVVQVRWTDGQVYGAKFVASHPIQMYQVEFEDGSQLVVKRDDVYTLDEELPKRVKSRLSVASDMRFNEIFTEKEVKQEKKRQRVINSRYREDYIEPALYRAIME

SMILES | target | assay | system | setting | how to read | endpoint | result
CCOC(=O)C(CC)(CCCSCCOCCOCCOCCNc1ccc([N+](=O)[O-])c2nonc12)NC(=O)c1ccc(C2CC2)c(Cc2ccc(F)cc2)n1 (centres unmarked) | Cannabinoid receptor 2 (CNR2, Homo sapiens, UniProt P34972) | radioligand binding | – | – | relative to: CB1 over CB2 (human) | Ki ratio | 17
Cc1sc2c(c1C)C(c1ccc(Cl)cc1)=N[C@@H](CC(=O)NCCCCNC(=O)COc1cccc3c1C(=O)N(C1CCC(=O)NC1=O)C3=O)c1nnc(C)n1-2 (some centres unmarked) | BRD4/CRBN, BD2; CRL4 complex (Homo sapiens, UniProt O60885+Q96SW2) | ternary complex formation, degrader, FRET | – | BRD4 BD2 with CRL4-CRBN | – | cooperativity alpha | < 1
CC(=O)N[C@@H](CC(=O)O)C(=O)N[C@@H](Cc1ccccc1)C(=O)N[C@H](C(=O)N[C@@H](CC(=O)O)C(=O)COC(=O)c1c(C)cccc1C)C(C)(C)C | CASP7 | enzyme activity, inhibitor | – | – | – | kinact/KI | 27500 M⁻¹ s⁻¹
COC(=O)[C@@]1(C)C=C(C(=O)Nc2cccc(C(=O)Nc3ccc(Nc4nccc(-c5cccnc5)n4)c(C)c3)c2)C(=O)CC1 | Mitogen-activated protein kinase 8 (MAPK8, Homo sapiens, UniProt P45983) | enzyme activity, inhibitor, radiometric | – | 1 µM | – | remaining activity | 2%
CN(C)c1ccc(C2=C/C(=C/C=C/c3sc4ccccc4[n+]3C)c3ccccc3O2)cc1 | T1, G-quadruplex DNA, G-quadruplex (Homo sapiens) | fluorescence turn-on | – | – | – | binding | binds
NS(=O)(=O)c1nnc(N2C(=O)c3cccc4c(N5CCOCC5)ccc(c34)C2=O)s1 | Carbonic anhydrase 2 (CA2, Bos taurus, UniProt P00921) | binding | – | – | – | emission maximum | 533 nm
O=C(O)Cc1cc2c(cc1C(=O)c1ccccc1Cl)OCO2 | Glutamate receptor 2 (Gria2, Rattus norvegicus, UniProt P19491) | glutamate-evoked current, whole-cell patch clamp | HEK-293T | concentration not given, weighted tau, 1 ms pulse, together with: glutamate | – | deactivation time constant | 8.8 ± 0.7 ms
Clc1ccc(NN=C(c2ccccc2)c2ccccn2)nc1 | Lysine-specific demethylase 4A (KDM4A, Homo sapiens, UniProt O75164) | demethylase activity, inhibitor, 1H NMR, refers to: H3K9me3 peptide | – | – | – | remaining signal at infinite time | 78%
Cc1cc(C)cc(COc2cc3c(cc2OCc2cc(C)cc(C)c2)C2CC(O)(Cc4cn(CCOCCOCCNC(=O)CCCCC5SCC6NC(=O)NC65)nn4)CC(C)N2CC3)c1 (centres unmarked) | Transgelin-2 (Homo sapiens, UniProt P37802) | biotinylated probe pull-down, refers to: TAGLN2 | – | 10 µM probe | relative to: heavy over light | SILAC ratio | 2.3
N#CN1CC[C@H](C(=O)Nc2nc3c(s2)CN(C(=O)Cn2cc(CNC(=O)CCCC[C@@H]4SC[C@@H]5NC(=O)N[C@@H]54)nn2)CC3)C1 | Omega-amidase NIT2 (NIT2, Homo sapiens, UniProt Q9NQR4) | probe binding, affinity probe, neutravidin pull-down LC-MS/MS | HEK293T, cell lysate | 5 µM, 1 h, mean of three replicates, unit not given | higher = more pulled down | iBAQ abundance | 3.32e+08
CCCCCC=CC=C1C(=O)C=CC1CC=CCCCC(=O)O (centres unmarked) | Monofunctional C1-tetrahydrofolate synthase, mitochondrial (MTHFD1L, Homo sapiens, UniProt Q6UB35) | competitive isoTOP-ABPP | proteome, soluble, MDA-MB-231 | 100 µM, together with: iodoacetamide probe | relative to: DMSO over compound-treated, higher = stronger cysteine blockade | isoTOP-ABPP competition ratio | 2.7
Cc1ccc(-n2cc(CNC(=O)c3cncc(Br)c3)cn2)cc1 | human kinase panel | binding, KINOMEscan | – | 10000 nM, %Ctrl below 1 | – | number of kinases hit | 0
CC(=O)N[C@@H](Cc1ccc(O)cc1)C(=O)N[C@@H](CCCCN)C(=O)N[C@@H](C)C(=O)N[C@@H](CC(=O)O)C(=O)COC(=O)c1c(C)cccc1C | CASP7 | enzyme activity, inhibitor | – | – | – | kinact/KI | 2200 M⁻¹ s⁻¹
C#CCOC(=O)[C@@]1(C)C=C(C(=O)OC(C)(C)C)C(=O)CC1 | Mitogen-activated protein kinase 1 (MAPK1, Homo sapiens, UniProt P28482) | enzyme activity, D-SENSOR | – | 1.646 µM, single replicate | – | normalized kinase activity | 1.03 and 1.09 and 1.01

For quick reference, copied from above:
SMILES | target | assay | system | setting | how to read | endpoint | result
C#CCOC(=O)[C@@]1(C)C=C(C(=O)OC(C)(C)C)C(=O)CC1 | Mitogen-activated protein kinase 1 (MAPK1, Homo sapiens, UniProt P28482) | enzyme activity, D-SENSOR | – | 1.646 µM, single replicate | – | normalized kinase activity | 1.03 and 1.09 and 1.01
